Experimental data gathered from unrelated publications.
Numbered parts are unrelated; each lists some results of a single study.

Study 1 — method: RNA Bind-n-Seq; molecule type: RNA; medium: in vitro; tested at: not given; relative to: input RNA pool; reading: higher = stronger binding
Target: RING finger protein unkempt homolog, zinc fingers 1-6, GST-SBP tag (UNK, Homo sapiens, UniProt Q9C0B0, residues 30-357)
Chain of UniProt Q9C0B0 (30-357, looked up): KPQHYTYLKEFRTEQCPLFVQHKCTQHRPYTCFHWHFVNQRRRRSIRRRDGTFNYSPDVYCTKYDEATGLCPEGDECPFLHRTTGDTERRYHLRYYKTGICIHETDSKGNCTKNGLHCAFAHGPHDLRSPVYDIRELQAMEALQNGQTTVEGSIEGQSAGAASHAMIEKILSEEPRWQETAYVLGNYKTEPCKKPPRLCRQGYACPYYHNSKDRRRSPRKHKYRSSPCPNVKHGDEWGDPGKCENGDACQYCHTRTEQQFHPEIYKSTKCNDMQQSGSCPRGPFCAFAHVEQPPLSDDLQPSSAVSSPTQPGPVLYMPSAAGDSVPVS
Notes: RNA with constant flanks, human and mouse sites, ends assumed
Constant ends, left off below: GGGAGUUCUACAGUCCGACGAUC … CAACAGAGGAUUGAGCAUCA
| Sequence | bound/input enrichment [ratio] |
| --- | --- |
| CACACACACACACACACACACACACACACACACACACACACACACACACACGGUGUUUCUAGAGAUCCAGUUGAGGACAUCUAGCAAGGGGAGUGACUGCCUCCCUUGGGCCAAGUUCCC | 0.398 |
| GCUCUAGUUCUUAACAACCGACACUCCUACAAGAUUUAGAAAAAAGUUUACAACAUAAUCUAGUUUACAGAAAAAUCUUGUGCUAGAAUACUUUUUAAAAGGUAUUUUGAAUACCAUUAA | 9.04 |
| UCUAGGAGUCACAGUAUCUUCCUGAUUAACAUUAAGCAAGAGAAUGUGGAGACUGAAAAAAAACUCAGCGGGAAGCUGUAUUUGGUUGAUUUGGCUGGGAGUGAAAAGGUCAGCAAAACC | 0.285 |
| GAAUCUGUACUUGUAGAGUGGCGCGAUGCAACAGAGAAGAAUAAGGAGUUUCUCCCGCGUUUAGGAGCUACUAUUGAACAUAUCUCAGUCUCGCCUGCAGGAGAUUUAUUCUGCACUUCU | 2.98 |
| GUUGCAUUUACAACAAGAAUUUAUCACCCAAAUAUUAACAGUAAUGGCAGCAUUUGUCUUGAUAUUCUACGGUCACAGUGGUCUCCAGCACUAACUAUUUCAAAAGUACUUUUGUCCAUC | 0.248 |
| CAUUUAAAGUGGCAAAGCUCUAAAGCGUUCUGAGUACUAAAUACAUUUUUAACUUGACUGUAGCUGCCUAUAAACUUUCAGGUAAAGGAAAAAGGGAAGUGCGGGUAGUGGAGAUUUUGC | 0.422 |
| AACAUGACUAUUACUAAUGACUACCAGCACCUGCUUGUCAAUUCCAUUGCCAACUUUUUCCGCUUGUUAUCUCAGGGGGGUGGAAAAAUCAAGGUUGAGAUUCUGAAAAUACUUUCAAAC | 0.304 |
| UCAGGUGUUUGUAGUUAUUCAUACUGUAAAAAGAGGUAGCAUGAUAUGCUGGGACGCAUAUUUAGACCAGGAGCCCAAGGUGGACUCCUCGUCUUGAAUUUGCCAUUAACGUGCUGCAUG | 0.174 |

Study 2 — method: RNA Bind-n-Seq; molecule type: RNA; medium: in vitro; tested at: 365 nM; relative to: no-protein control; reading: higher = stronger binding
Target: RNA binding protein fox-1 homolog 2, RRM domain, GST-SBP tag (RBFOX2, Homo sapiens, UniProt O43251-10, residues 100-194)
Notes: natural RNA segment, single round, ends assumed
Constant ends, left off below: GGGAGUUCUACAGUCCGACGAUC … UGGAAUUCUCGGGUGCCAA
| Sequence | RBNS enrichment (R) |
| --- | --- |
| GUAAUAAGACUAUCGUCUUCCUACACAUAGGAGGCUCAUUCUCUGGACACACUAUCACCUAUUACAUUUUACUGAUUAACAAAUAAAUUGGAAUUUAAAAAUAUCGAUAU | 0.626 |
| GGAAAGAGUUCACAUCUUAGGUUUGAAAGGGAGCAUUUGAGUCUUCUCACUGACCUCUUCCUAGCAGCUUAGAUAGCCUCAGACAUGACUGCCAGGAUUCCUGAUAUGCC | 0.565 |
| AAAUCCUUGGAUAUUUUUAGAAGUCUGUAACUUUACACAAAUAAUGAAAUAAUUUUUAAUUCAAAGUUUCUCACCCUACUUGUUAAUUUGCCCCCAAGGAAAGUUGUUUU | 0.836 |
| CCUUGAGAGAGAACCUGGGCUAGGGCUAGAGUUAGGGCUACAUACUCCAAGGUGACCUCACAUUUGACUAUCAAAUGAAGUGUUGUGAUUGGGAAGCGUAGAGGCAGGGC | 0.529 |
| CUACAUAGACUCCUGCCUCCAGGUGCAGGAACACACCUUCCUAAAGUGCUGUGGGAGGCCAAACUGGGGAGCUGUGCUAAGUCAAUGUAGAAAUUCUCGAGUAUUUUGGU | 0.622 |
| UCUGGAGCAGCUGUGGCUUCCCCGUGGCUGCUUGGUGACAUGGAUUAGCGCUACGUGGGCUGCAGCAUUUGGGAUCCAGGCUACCUAGAGGGGCAUCGGGCCAGGGAAAA | 1.12 |
| GCUUGAUAUUGCCUAGCUUUGUUGUUUUAAUUAACUUUCUAUUAGAGAGACUGUAUAUAUUUUUUCUAAAUACUUUGUGAAAUCAUUUUUGGUAGCAAUAUCUUUGAAUA | 0.622 |
| GUAGAGAAACCGUGGAGAUCGCUUUUCUCAGACUCACCAACUUUUAAUGGGAUUUCAUGGGGUUUGGUUGUGCUGAUAGGGUAAGGGGAGGCUGCUUUCUGCCCUUCUCC | 0.413 |
| GAUAGCUAUAUUCAAAAUGUCUAUAUGUUUAUUUGGACUUUUGAGGUUAAAGACAGUCAUAUAAACGUCCUGUUUCUGUUUUAAUGUUAUCAUAGAAUUUUUUAAUGAAA | 0.82 |
| UUUGACAGAGAAAUAUUGUUUAGACUGCAUUAUUUUUGUUCGACUCCAAAAGAUUUGCCAAAUAACAAGCGCACAUAGUGUGCACUGUUGGAGACUGAAAAUGCCUACUG | 0.398 |
| CUUCCUGAGUUUUCUCAGUUUUUACAUCUAAGAUUAGUCUUGGCUGAAGAGAAAUGAGACGUGAUUAUACUACUUUUUCAAUUGCAGGUUUAAGGAGUUCAGAUUUAAUG | 0.432 |
| UGUUCUUAAAGCAUUAUUUACAGUAGGAACUGGGGAGUAAAUCUGUUCCCUACAGUUUGCUGCUGAGCUGGAAGCUGUGGGGGAAGGAGUUGACAGGUGGGCCCAGUGAA | 0.51 |

Study 3 — method: protein-binding microarray; molecule type: double-stranded DNA, one strand shown; medium: in vitro; tested at: 2540 nM top; notes: 60-bp whole probe; added: salmon DNA 0.4 mg/ml; relative to: random background probes; reading: higher = stronger binding; constant ends, left off below: GCCTAGCAC … GTCTTGATTCGCTTGACGCTGCTG
Target: Interferon regulatory factor 3, full length, phosphomimetic (IRF3, Homo sapiens, UniProt Q14653, residues 1-427, S386D/S396D/S398D/S402D/T404D/S405D)
Construct (chain): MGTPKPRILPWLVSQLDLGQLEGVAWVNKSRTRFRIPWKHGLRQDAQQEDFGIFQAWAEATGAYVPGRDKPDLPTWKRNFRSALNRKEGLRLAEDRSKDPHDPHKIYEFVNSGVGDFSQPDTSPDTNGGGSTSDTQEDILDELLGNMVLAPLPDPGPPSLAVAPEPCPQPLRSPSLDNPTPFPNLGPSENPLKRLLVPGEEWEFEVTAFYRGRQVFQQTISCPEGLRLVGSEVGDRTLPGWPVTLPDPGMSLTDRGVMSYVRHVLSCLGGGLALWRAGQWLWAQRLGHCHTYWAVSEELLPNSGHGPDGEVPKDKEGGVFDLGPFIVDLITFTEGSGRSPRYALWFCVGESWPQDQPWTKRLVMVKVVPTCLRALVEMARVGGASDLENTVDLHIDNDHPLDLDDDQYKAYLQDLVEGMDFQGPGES
| Sequence | fitted relative affinity [z-score] |
| --- | --- |
| GACGGTTTCCTTATCGTGACGTGCTAG | 8.18 |
| GACGAGATCAGTATCGAGACGTGCTAG | 1.04 |
| GACGAACAGAGTATCGAGACGTGCTAG | -0.0705 |
| TTAGGTATCGGGCTGGGTTAGTGCTAG | 0.152 |
| GACGACATCAGTATCGAGACGTGCTAG | 0.161 |
| TTAGGACTGGGTCTCGATTAGTGCTAG | -0.543 |
| GACGCTTTCGGTCTCGGGACGTGCTAG | 4.85 |
| GACGGACTGGGCCTGGGGACGTGCTAG | -1.07 |
| GAAATTCTCATTTCCAATTAGTGCTAG | 3.05 |
| CACGGTCTCCTTATCCTGACGTGCTAG | 2.42 |
| GAGGATTTCAGTCTCGAGACGTGCTAG | 1.32 |
| TCAAATATATGTATATAACTGTGCTAG | 0.22 |
| GAAGGTATCGACTATCGGGACGTGCTA | 0.302 |
| GACGAACTGGGGCATCGAGACGTGCTA | -0.669 |
| GACGCTCTCAGTCTCGAGACGTGCTAG | 0.431 |
| TTATAACTGGGGACTGGATTAGTGCTA | -0.274 |
| GACGGACTCGACTATCGGGACGTGCTA | -0.392 |
| TTAGATTTCAGACCGGATTAGTGCTAG | 0.546 |

Study 4 — method: protein binding microarray; molecule type: double-stranded DNA, one strand shown; medium: in vitro; tested at: not given; relative to: not given; reading: higher = stronger binding
Target: Histone acetyltransferase KAT6A, winged helix 2, GST fusion (KAT6A, Homo sapiens, UniProt Q92794, residues 85-181)
Notes: 8-mer, flanks averaged, mean of 2 arrays, mostly near background
Construct (chain): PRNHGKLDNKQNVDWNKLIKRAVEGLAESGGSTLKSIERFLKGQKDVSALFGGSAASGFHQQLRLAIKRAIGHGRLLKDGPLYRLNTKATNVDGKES
| Sequence | E-score |
| --- | --- |
| TAGGTCGA | 0.0693 |
| ACGAGGGG | -0.0262 |
| ACATTATA | -0.122 |
| GTCAGGCA | 0.0888 |
| CCTAAATC | -0.00869 |
| CGAACCGC | 0.262 |
| ATCTATGG | -0.13 |
| CCCGCACC | 0.132 |
| CGCGGTTA | 0.0848 |
| CATATAGG | -0.155 |
| ACTCCCCG | 0.215 |
| CGGCAACG | 0.0274 |
| GTCAAACA | -0.182 |

Study 5 — method: universal PBM; molecule type: double-stranded DNA, one strand shown; medium: in vitro; tested at: not given; reading: higher = stronger binding
Target: Sal-like protein 4, full length isoform B (SALL4, Homo sapiens, UniProt Q9UJQ4-2, residues 1-616)
Notes: 8-mer, flanks averaged, mean of replicates
Residues (chain): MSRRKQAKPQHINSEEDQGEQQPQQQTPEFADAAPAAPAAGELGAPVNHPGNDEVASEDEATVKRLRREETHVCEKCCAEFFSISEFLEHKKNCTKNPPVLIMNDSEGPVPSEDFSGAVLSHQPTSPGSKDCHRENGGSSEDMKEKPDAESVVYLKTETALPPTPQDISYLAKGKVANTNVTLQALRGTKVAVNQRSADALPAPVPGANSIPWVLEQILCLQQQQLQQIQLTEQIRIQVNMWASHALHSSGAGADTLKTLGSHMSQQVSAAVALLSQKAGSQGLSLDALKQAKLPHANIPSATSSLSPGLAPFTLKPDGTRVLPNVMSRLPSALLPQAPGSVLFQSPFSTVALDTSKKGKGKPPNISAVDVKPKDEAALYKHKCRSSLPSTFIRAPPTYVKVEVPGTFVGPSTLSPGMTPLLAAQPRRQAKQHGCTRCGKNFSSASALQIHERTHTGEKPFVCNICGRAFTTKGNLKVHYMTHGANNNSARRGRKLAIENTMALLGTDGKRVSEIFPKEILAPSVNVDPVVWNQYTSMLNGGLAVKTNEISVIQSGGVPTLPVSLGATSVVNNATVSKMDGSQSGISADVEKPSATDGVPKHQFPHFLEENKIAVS
| Sequence | E-score |
| --- | --- |
| GTTCGGAA | -0.083 |
| ACACAGAA | -0.0168 |
| CCCGAAGG | -0.158 |
| CTACGTGA | -0.196 |
| GAATATGC | 0.237 |
| AATCGCCG | -0.152 |
| TGAAGAAA | 0.143 |
| ACTGGGGA | -0.239 |
| CGGGGATA | -0.195 |

Study 6 — method: competition protein-binding microarray; molecule type: double-stranded DNA, one strand shown; medium: in vitro; tested at: 2 µM; added: Pho4 competitor, 0.05 µM; reading: higher = stronger binding; constant ends, left off below: … GTCTTGATTCGCTTGACGCTGCTG
Target: Centromere-binding protein 1, full length, His-tagged (CBF1, Saccharomyces cerevisiae, UniProt P17106, residues 1-351)
Chain of UniProt P17106 (whole entry, looked up): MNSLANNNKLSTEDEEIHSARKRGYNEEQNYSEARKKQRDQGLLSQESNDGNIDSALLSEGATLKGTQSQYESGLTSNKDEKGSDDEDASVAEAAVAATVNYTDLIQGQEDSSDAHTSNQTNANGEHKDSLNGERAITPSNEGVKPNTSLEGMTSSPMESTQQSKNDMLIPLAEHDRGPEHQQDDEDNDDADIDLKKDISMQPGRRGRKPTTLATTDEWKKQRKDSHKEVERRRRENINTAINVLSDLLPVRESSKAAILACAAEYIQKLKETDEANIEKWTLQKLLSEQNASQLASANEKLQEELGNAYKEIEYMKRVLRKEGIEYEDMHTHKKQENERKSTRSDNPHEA
Notes: whole 60-bp probe, lowest competitor level
| Sequence | fluorescence intensity [a.u.] |
| --- | --- |
| GCTGCAGGTTCTAACCATGTGATGACAATGGATTTG | 602 |
| TACATCTACCGCTGAAACGTGGATTCAAGGAACAGT | 73.3 |
| TACCCAGCGCGTCCGCACGTGCTTTTTATGGAAACT | 2240 |
| ACTGAGTCTACCAGTTATGTGACAGTATATGTCAGC | 76.4 |
| TCTATTCCGCGGTAACCTATGGTTACGGCCAGATTT | 53.1 |
| AAAGCGGTAATTTGCACAGTGGGTGCAGATATCTAT | 70.1 |
| TGGAGCCCGCAGCGTCACATGGCGTCTGGGGGCTTG | 341 |
| ATATCATTTCGCCAACACGTGAGATATCATCTGGCT | 1490 |
| ACAGCAAGCAACCATCACGTGCTAAATCGCAAACTT | 4420 |
| AAAGCGGTAATTTGAGAGGTGGGTGCAGATATCTAT | 64 |
| AAATTACTAAGTTGACCGGTGGGTGACGCCGTATGA | 75.8 |
| CTTCTGTAAATTTGACTAGTGGGTGGACGCGCCCCG | 79.5 |
| TGAAATCGAGCCGGCCTCGTGAAAAGGTGTAAAAAA | 91 |
| CTTCTGTAAATTTGTCAAGTGGGTGGACGCGCCCCG | 81.6 |
